Assay results pooled from the literature.
Each numbered part is a random draw from the data of one study; scales do not carry over between parts.
UniProt Q8NE63, sequence (whole entry, looked up): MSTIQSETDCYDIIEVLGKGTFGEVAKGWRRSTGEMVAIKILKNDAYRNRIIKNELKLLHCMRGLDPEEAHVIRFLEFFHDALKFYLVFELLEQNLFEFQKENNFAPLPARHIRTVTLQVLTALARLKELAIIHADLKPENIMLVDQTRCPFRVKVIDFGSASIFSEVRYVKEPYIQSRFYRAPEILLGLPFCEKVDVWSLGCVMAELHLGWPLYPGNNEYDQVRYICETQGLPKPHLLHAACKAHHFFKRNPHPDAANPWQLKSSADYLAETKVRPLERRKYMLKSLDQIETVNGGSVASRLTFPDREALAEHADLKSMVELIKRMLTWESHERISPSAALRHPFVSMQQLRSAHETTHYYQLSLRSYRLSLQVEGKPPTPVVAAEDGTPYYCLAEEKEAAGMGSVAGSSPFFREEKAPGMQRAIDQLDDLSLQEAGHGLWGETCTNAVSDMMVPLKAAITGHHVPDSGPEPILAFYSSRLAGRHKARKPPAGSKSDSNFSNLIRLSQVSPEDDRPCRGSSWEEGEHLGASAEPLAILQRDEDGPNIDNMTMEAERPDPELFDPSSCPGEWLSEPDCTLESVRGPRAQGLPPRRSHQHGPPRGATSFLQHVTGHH
UniProt O43353, sequence (whole entry, looked up): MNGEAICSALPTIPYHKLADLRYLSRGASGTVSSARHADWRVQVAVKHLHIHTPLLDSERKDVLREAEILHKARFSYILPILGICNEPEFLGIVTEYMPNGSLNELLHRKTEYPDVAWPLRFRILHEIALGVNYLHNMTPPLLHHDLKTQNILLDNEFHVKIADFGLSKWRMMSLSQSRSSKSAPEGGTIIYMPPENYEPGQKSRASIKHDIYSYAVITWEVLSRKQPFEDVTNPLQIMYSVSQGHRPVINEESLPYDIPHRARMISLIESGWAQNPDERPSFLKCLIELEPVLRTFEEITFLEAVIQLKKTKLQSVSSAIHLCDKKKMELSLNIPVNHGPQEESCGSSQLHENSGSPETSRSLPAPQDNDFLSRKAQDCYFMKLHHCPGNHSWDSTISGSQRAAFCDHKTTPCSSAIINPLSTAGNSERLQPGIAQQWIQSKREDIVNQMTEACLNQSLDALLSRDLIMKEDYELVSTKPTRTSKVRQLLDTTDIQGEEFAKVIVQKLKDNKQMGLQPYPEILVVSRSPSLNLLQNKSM
UniProt Q8IVH8, sequence (whole entry, looked up): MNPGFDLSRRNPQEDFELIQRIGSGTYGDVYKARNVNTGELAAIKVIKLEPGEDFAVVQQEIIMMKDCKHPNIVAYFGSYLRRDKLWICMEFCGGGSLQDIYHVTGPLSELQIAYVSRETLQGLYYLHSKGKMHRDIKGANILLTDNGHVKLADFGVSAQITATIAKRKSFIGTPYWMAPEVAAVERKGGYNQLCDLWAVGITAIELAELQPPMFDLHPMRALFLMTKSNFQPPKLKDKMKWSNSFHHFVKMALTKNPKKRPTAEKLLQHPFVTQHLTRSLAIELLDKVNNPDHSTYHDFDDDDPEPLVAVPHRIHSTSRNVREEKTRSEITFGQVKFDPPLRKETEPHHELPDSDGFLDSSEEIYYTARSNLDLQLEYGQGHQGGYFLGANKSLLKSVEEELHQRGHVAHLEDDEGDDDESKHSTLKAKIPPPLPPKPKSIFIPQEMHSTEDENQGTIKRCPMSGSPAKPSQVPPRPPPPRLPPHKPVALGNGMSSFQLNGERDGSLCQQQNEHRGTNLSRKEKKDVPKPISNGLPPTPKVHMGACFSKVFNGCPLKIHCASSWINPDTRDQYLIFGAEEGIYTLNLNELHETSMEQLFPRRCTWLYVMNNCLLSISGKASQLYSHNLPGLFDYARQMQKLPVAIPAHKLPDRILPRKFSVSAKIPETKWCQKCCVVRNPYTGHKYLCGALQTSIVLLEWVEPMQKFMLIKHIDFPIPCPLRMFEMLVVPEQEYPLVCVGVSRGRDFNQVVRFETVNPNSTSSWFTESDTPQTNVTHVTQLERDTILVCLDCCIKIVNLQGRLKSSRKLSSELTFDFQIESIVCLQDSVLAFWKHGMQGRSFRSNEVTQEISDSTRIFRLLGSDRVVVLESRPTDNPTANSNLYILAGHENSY
UniProt Q14004, sequence (whole entry, looked up): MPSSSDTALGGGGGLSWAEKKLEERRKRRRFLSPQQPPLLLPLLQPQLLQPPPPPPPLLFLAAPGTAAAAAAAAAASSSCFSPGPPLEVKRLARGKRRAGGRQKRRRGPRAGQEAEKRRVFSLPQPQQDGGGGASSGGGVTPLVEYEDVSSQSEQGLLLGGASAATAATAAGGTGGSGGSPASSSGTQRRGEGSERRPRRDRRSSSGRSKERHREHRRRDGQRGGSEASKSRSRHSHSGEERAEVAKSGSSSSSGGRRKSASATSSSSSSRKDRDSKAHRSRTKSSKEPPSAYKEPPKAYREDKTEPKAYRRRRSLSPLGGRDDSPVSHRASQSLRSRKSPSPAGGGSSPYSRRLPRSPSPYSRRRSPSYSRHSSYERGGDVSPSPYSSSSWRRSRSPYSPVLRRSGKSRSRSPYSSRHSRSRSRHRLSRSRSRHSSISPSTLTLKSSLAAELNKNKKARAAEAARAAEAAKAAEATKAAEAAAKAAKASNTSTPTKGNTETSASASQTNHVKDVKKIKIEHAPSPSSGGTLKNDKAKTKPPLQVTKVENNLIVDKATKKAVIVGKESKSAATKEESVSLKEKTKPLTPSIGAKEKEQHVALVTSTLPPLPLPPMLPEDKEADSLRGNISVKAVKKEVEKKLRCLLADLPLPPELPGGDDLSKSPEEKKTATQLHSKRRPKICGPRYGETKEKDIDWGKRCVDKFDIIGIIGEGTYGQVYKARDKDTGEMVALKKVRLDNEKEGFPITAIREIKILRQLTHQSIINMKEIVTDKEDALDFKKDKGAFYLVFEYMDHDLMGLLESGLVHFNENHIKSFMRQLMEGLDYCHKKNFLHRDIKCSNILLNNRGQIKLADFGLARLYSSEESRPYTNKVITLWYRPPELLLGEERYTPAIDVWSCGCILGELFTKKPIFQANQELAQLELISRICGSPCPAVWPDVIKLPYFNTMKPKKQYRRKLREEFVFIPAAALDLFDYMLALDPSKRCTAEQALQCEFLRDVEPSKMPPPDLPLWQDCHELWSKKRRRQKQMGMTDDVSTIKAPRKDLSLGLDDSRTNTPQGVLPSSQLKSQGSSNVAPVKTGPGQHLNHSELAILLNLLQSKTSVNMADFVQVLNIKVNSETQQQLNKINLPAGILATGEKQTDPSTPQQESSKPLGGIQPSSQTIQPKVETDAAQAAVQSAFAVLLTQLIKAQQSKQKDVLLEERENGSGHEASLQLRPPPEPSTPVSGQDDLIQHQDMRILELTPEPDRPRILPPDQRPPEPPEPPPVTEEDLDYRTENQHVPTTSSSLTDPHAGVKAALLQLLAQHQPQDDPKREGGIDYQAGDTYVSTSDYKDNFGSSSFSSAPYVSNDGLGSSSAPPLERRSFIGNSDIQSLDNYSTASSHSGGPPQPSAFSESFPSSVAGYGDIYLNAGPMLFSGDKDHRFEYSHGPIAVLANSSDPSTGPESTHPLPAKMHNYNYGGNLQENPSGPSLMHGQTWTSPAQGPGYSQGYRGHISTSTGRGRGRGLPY
UniProt P42336, sequence (whole entry, unmodified, looked up): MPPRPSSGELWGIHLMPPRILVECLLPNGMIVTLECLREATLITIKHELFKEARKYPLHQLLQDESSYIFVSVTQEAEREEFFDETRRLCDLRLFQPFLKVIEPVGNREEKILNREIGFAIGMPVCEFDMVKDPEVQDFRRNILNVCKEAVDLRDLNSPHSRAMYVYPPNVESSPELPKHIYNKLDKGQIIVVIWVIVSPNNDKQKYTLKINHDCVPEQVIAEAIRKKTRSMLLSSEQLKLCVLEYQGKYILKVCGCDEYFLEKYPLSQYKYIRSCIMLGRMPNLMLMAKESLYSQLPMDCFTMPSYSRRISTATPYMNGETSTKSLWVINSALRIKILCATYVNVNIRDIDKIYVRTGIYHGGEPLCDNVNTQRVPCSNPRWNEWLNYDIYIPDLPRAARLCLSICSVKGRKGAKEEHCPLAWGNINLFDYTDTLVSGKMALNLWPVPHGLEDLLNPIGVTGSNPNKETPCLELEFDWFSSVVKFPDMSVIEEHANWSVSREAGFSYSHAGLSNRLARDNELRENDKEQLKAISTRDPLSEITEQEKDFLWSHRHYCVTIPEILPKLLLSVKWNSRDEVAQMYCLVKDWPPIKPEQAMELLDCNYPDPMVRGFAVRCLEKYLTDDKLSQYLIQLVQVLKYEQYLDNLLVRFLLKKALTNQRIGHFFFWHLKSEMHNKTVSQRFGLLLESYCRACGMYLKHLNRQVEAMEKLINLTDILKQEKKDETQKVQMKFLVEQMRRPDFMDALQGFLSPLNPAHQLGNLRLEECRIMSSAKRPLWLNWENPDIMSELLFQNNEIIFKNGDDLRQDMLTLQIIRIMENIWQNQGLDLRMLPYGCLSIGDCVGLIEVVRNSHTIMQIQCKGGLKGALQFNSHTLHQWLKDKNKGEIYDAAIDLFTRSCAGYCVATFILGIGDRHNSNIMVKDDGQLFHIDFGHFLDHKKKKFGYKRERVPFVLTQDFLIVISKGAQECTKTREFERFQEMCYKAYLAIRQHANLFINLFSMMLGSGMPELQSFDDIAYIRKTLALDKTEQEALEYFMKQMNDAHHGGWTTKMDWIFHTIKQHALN
UniProt Q96PN8, sequence (whole entry, looked up): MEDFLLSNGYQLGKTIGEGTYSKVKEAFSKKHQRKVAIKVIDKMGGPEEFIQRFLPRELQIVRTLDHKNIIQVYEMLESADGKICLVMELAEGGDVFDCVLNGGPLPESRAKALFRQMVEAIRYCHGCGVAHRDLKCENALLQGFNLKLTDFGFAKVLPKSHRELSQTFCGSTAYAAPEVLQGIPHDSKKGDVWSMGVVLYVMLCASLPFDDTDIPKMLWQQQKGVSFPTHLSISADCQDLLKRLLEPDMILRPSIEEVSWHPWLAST

Block 1 — effect on: cell-free assay; technique: competition with immobilised ligand; tested at: 0.1 µM; quantity: remaining binding
Compound: Cn1nc(C(=O)NCc2ccc(C(=O)O)cc2)cc1-c1ccc2[nH]ccc2c1
target = MAP3K14 (Homo sapiens, UniProt Q99558); value = 85%
target = Ribosomal protein S6 kinase alpha-3, N-terminal kinase domain (RPS6KA3, Homo sapiens, UniProt P51812); value = 78%
target = CDK13 (Homo sapiens, UniProt Q14004); value = 72%
target = MAP4K3 (Homo sapiens, UniProt Q8IVH8); value = 97%
target = LCK (Homo sapiens, UniProt P06239); value = 75%
target = ACVR2B (Homo sapiens, UniProt Q13705); value = 100%
target = CHUK (Homo sapiens, UniProt O15111); value = 90%
target = CDC42BPA (Homo sapiens, UniProt Q5VT25); value = 79%
target = WNK3 (Homo sapiens, UniProt Q9BYP7); value = 67%
target = MAPK13 (Homo sapiens, UniProt O15264); value = 91%
target = MTOR (Homo sapiens, UniProt P42345); value = 31%
target = HIPK4 (Homo sapiens, UniProt Q8NE63); value = 100%
target = MAPK10 (Homo sapiens, UniProt P53779); value = 76%
target = MARK4 (Homo sapiens, UniProt Q96L34); value = 100%
target = HUNK (Homo sapiens, UniProt P57058); value = 65%
target = PRPF4B (Homo sapiens, UniProt Q13523); value = 100%
target = PIK3CA (Homo sapiens, UniProt P42336, E545A); value = 77%
target = Tyrosine-protein kinase ABL1, non-phosphorylated (ABL1, Homo sapiens, UniProt P00519, H396P); value = 71%
target = TSSK3 (Homo sapiens, UniProt Q96PN8); value = 97%
target = RIPK2 (Homo sapiens, UniProt O43353); value = 100%

Block 2 — cell line: mouse MPNST tumor cells; technique: high-content nuclear imaging; refers to: cell number; tested at: 10 µM; time: 12 h; notes: mean of 2 replicates; baseline: plate mean; direction: higher = more cells; quantity: nuclei count
Structure (SMILES) = Nc1ccc(-c2nc3cc(Oc4ccc(Oc5ccc6[nH]c(-c7ccc(N)cc7)nc6c5)cc4)ccc3[nH]2)cc1; value = -5.41 z-score
Structure (SMILES) = Cc1nnc(C(=O)NC(C)(C)c2nc(C(=O)NCc3ccc(F)cc3)c(O)c(=O)n2C)o1; value = 1.42 z-score
Structure (SMILES) = O=C(O)C1CCCN(CCC=C(c2ccccc2)c2ccccc2)C1 (stereo not shown); value = 0.195 z-score

Block 3 — technique: protein binding microarray; form: double-stranded DNA, one strand shown; sample: in vitro; tested at: not given; baseline: not given; direction: higher = stronger binding; quantity: E-score
Target: Histone acetyltransferase KAT6A, both winged helices, GST fusion (KAT6A, Homo sapiens, UniProt Q92794, residues 1-181)
Notes: 8-mer, flanks averaged, mean of 2 arrays, mostly near background
Construct (chain): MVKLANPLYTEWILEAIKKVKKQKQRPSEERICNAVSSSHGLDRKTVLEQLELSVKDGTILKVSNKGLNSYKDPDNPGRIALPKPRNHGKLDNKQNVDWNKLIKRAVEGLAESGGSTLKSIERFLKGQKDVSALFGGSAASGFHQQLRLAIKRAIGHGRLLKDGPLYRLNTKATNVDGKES
Sequence = AGCTTAAA; value = 0.0271
Sequence = CCATCAAG; value = -0.187
Sequence = AGATTACT; value = -0.132
Sequence = AACGCCAG; value = -0.0683
Sequence = GAAGATCC; value = -0.0774
Sequence = CAGAACGC; value = 0.202
Sequence = AGTGCGAT; value = 0.0568
Sequence = CGAATGGC; value = 0.00331

Block 4 — target: His6 tag; technique: AlphaScreen counter screen; tested at: concentration not given; quantity: inhibition
Compound = CC1CCCCN1CCNc1ccc2nnc(-c3ccc(F)cc3)n2n1 (stereo not shown); value = 7.45%
Compound = O=C(Nc1ccc2[nH]ncc2c1)c1ccc(Cl)cc1Cl; value = 2.8%
Compound = O=C(NC[C@H](O)CO)c1ccncc1Nc1ccc(I)cc1F; value = 11.6%
Compound = COc1cc(F)c(F)c(Nc2ccc(I)cc2F)c1NS(=O)(=O)C1(C[C@H](O)CO)CC1; value = 4.9%

Block 5 — cell line: Huh-7; tested at: 10 µM; time: 24 h; quantity: viability
SMILES = CCS(=O)(=O)CCn1c([N+](=O)[O-])cnc1C; value = 93.4%
SMILES = C[C@]12CC[C@@H]3c4ccc(OC(=O)c5ccccc5)cc4CC[C@H]3[C@@H]1CC[C@@H]2O; value = 93.6%
SMILES = O=C1c2c(O)cccc2Cc2cccc(O)c21; value = 103%
SMILES = O=C(O)CCC(=O)OC[C@@H](NC(=O)C(Cl)Cl)[C@H](O)c1ccc([N+](=O)[O-])cc1; value = 97.9%

Further values, each from its own experiment
SMILES = CC(C)n1cnc(-c2ccc(F)cc2)c1-c1ncc(C(=O)Nc2ccc(N3CCN(C)CC3)cc2)[nH]1; test = refers to: grade ≥3 events; test system = patients with idiopathic pulmonary fibrosis; setting = 30 mg twice daily, trial, with: standard of care therapy; quantity = patients with serious adverse event; value = 25%

Excerpt of the above (block 1):
target = MAP4K3 (Homo sapiens, UniProt Q8IVH8); value = 97%
target = LCK (Homo sapiens, UniProt P06239); value = 75%
target = ACVR2B (Homo sapiens, UniProt Q13705); value = 100%
